# Assay results collected from several papers.
# Every numbered part comes from another study and shows a few of its results, in no order.

# Study 1
# Target: RNA binding protein fox-1 homolog 2, RRM domain, GST-SBP tag (RBFOX2, Homo sapiens, UniProt O43251-10, residues 100-194)
# Technique: RNA Bind-n-Seq
# Molecule type: RNA
# Matrix: in vitro
# Tested at: 365 nM
# Setting: natural RNA segment, single round, ends assumed
# Reference: no-protein control
# Reading: higher = stronger binding
# All sequences stand within: GGGAGUUCUACAGUCCGACGAUC … UGGAAUUCUCGGGUGCCAA
# Residues (chain): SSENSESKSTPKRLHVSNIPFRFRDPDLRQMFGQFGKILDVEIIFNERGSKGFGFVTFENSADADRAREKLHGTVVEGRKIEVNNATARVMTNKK
Oligonucleotide,RBNS enrichment (R)
CUGCCUUCUUUGUUGGGGGGAGAAGGGGGAAGGAAAUGGAACAAGUUGUGUUUGUGUUAGCAUGUGGGUGAUGUAAACUACAAAUUGGGAGCUGUUCCGACCCCCGCUCC,19.2
AGAGAAAAACCAGUGCUUCCUACUGCACAUGACUGACUCAGCUCCGCCACACGUAGCACCACUGUAACCACUGCUUUCUCUUCAAGUUUCAUUUUUUUCCUUUGAUUGAU,0.429
AAUAGCUGAAUGUAAAUAGCAGGGAGGAAGAAGCAAGCAAAGUGAGAGCUUUUCUUCAUCCAGAAUUGCCCUCUGGGCUCCUUUGGUAACAGAUGGAGCUCCUUCCUAGC,0.728
CUGAUCCCAGGAGGCCCUGCAGUUCCCCCGACCCGCGGAUGGCAGUCUGGAAUAAAGCCCCCUAGUUGCCUUUGGCCCCACCUUUGCAAAGUUCCAGAGGGCUGACCCUC,0.22
GAAGGUUGGCAGCUGCCUGGCCUCACUGAACCUUAGUGACAAGUCUUUGCCUCAGGAGCUGACUCAUGCCAUAGAGAGGGGACUGUAGACCAGGCUGGGGCUGCUGCCCU,0.453
AGAAAUAGUGUUGGGAGGGAACCUGUCUAGUAACAGAGCUAGCAAAUGUCCAGGCUGGUGAAGAUCCGCUGAGCAAGAGCCCUGGUGUGGGGAAAGGGAGGUCAGAGUAC,1.23

# Study 2
# Target: Sal-like protein 4, full length isoform B (SALL4, Homo sapiens, UniProt Q9UJQ4-2, residues 1-616)
# Technique: universal PBM
# Molecule type: double-stranded DNA, one strand shown
# Matrix: in vitro
# Tested at: not given
# Setting: 8-mer, flanks averaged, mean of replicates
# Reading: higher = stronger binding
Oligonucleotide,E-score
ACCAGCCG,-0.313
GTTCCCAA,-0.146
CCCCATAA,0.0456
AAGATAAC,0.18
AGACACCA,-0.0248
AGGTCGAG,-0.113
CCACGCGC,-0.228
GAGGAGAC,-0.181
AACCTGGA,-0.0987
TAAGAACA,0.246
CACCCCCG,-0.153
AGGTGTAC,0.00526
CTCATGGC,-0.179
CTGCTTAA,-0.0261
CAACGTTA,0.133
CCATCCTC,-0.157

# Study 3
# Target: Prothrombin, mature alpha-thrombin (F2, Homo sapiens, UniProt P00734)
# Technique: aptamer microarray, sandwich
# Molecule type: DNA with 2'F-ANA
# Matrix: in vitro
# Tested at: 200 nM
# Setting: whole 15-mer aptamer, many near background
# Added: Cy3 exosite-II aptamer, 400 nM
# Reading: higher = stronger binding
# Oligonucleotide: GGTTGGTGTGGTTGG
Modification,mean fluorescence intensity [a.u.]
2'F-ANA at 1 4 5 9 10 14,43.9
2'F-ANA at 1 2 5 10 11 14,49.5
2'F-ANA at 1 4 5 6 10,99.8
2'F-ANA at 1 4 6 7 8 9 11 12 15,235
2'F-ANA at 4 5 6 7 10 11 15,52.2
2'F-ANA at 1 5 6 7 9 11,57.4
2'F-ANA at 3 4 6 7 9 11 12 14,250
2'F-ANA at 1 3 4 5 8 9 10 11 12 15,50.2
2'F-ANA at 2 6 7 8 9 14 15,135
2'F-ANA at 1 2 3 4 8 9 12 13 15,235
2'F-ANA at 2 3 5 6 9 10 11 13 15,55.1
2'F-ANA at 2 4 5 6 9 10 11 12,54.3
2'F-ANA at 1 3 4 6 10 11 14 15,90.1
2'F-ANA at 2 5 6 11 12 13,94.6
2'F-ANA at 1 3 4 7 11 13 14,71.6
2'F-ANA at 3 6 8 11 12 15,998

# Study 4
# Target: PABPC1L2, full length, GST fusion (mouse, UniProt A0ABA7IW68)
# Technique: RNAcompete
# Molecule type: RNA
# Matrix: in vitro
# Tested at: 20 nM
# Setting: 7-mer, probes averaged, single round
# Reference: mean of 7-mers
# Reading: higher = stronger binding
# Residues (chain): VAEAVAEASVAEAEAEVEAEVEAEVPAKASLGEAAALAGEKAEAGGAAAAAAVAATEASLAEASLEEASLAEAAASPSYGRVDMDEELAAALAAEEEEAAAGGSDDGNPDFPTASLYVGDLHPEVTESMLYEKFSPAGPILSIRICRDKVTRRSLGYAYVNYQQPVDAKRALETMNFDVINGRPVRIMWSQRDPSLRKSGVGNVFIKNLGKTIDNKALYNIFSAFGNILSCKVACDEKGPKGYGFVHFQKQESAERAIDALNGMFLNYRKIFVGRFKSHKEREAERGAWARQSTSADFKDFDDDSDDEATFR
Oligonucleotide,7-mer Z-score
AUUUUCU,-0.213
GCACGGC,-0.121
CUCCGUA,-0.269
AAUCACA,0.184
CUUCAUU,-0.284
UGGGAUG,0.325
AUGAGCU,-0.2
AGUUCCC,-0.264

# Excerpt of the above (study 2):
Oligonucleotide,E-score
GTTCCCAA,-0.146
CCCCATAA,0.0456
AAGATAAC,0.18
AGACACCA,-0.0248
